Experimental data collected from several papers.
± marks the error that the study gave.

Structure (SMILES) | assay | test system | setting | scale | endpoint | value
COc1ccc2c(c1)CN(C(=O)CCN1CCC(Cc3ccccc3)CC1)CC[S@@+]2[O-] | telemetry | conscious male beagle dogs | intravenous, 2 mg/kg, 2 h |  | systolic blood pressure | 135 ± 16 mmHg
CNC(=O)c1cc(Oc2ccc(NC(=O)Nc3cc(C(C)(C)C)nn3-c3ccc4ncccc4c3)c(F)c2)ccn1 | item: worst grade 2 | human | oral, dose not given, cycles 1 and 2, Medium Cmax subgroup |  | patients with musculoskeletal disorder AE | 13%
CO[C@H]1C[C@@H]2CC[C@@H](C)[C@@](O)(O2)C(=O)C(=O)N2CCCC[C@H]2C(=O)O[C@H]([C@H](C)C[C@@H]2CC[C@@H](O)[C@H](OC)C2)CC(=O)[C@H](C)/C=C(\C)[C@@H](O)[C@@H](OC)C(=O)[C@H](C)C[C@H](C)/C=C/C=C/C=C/1C |  | healthy adult horses | intravenous, 0.06 mg/kg, 24 h |  | heart rate | 33.5 ± 2.8 beats/min
C[C@@H](O)[C@H](NC(=O)c1ccc(-c2ccccc2)cc1)C(=O)NO |  | aqueous buffer | pH 7.4 |  | solubility | 95 µg/mL
CCOC(=O)N1C[C@@H](c2cnn(C)c2)N[C@@H](c2ccc(C#N)cc2)C1 | shake-flask, LC-HRMS | aqueous buffer | 16 h, pH 6.8 |  | solubility | > 750 µM
Cc1c(C(=O)O)ccc2c3n(nc12)[C@@H]1[C@H](C3)N(CC2CC2)[C@@]2(C(=O)Nc3cc(Cl)ccc32)[C@H]1c1cccc(Cl)c1F | phase Ia trial, item: Headache | cancer patients | oral, dose not given, all patients grade ≥3 |  | adverse event incidence | 0%
CNCCOC12CC3(C)CC(C)(CC(Cn4ncc(-c5ccc(N6CCc7cccc(C(=O)Nc8nc9ccccc9s8)c7C6)nc5C(=O)O)c4C)(C3)C1)C2 |  | beagle dog, male, anaesthetised | intravenous bolus, 0.03 mg/kg, 105 min | baseline: baseline | QRS duration change | -2 ms
Cc1cc(NC2CCN(C(=O)OC3CCN(C(=O)/C=C/CN(C)C)C3)CC2)n2ncc(C(C)C)c2n1 (stereo not drawn) | Phase I dose escalation CTCAE v4.0, item: abdominal distension | patients with advanced solid tumours | dose not given, TIW dosing any grade |  | patients with adverse event | 0%
CCOC(=O)N1C[C@@H](c2ccc(-c3ccccc3)cc2)N[C@@H](C(CC)CC)C1 | shake-flask, LC-HRMS | aqueous buffer | 16 h, pH 6.8 |  | solubility | < 4 µM
CCOc1c([C@H](C)n2nc(C)c3c(N)ncnc32)cc(Cl)c(F)c1[C@@H]1CNC(=O)C1 |  | previously treated B-cell malignancy patients | oral, 5 to 45 mg once daily, across doses and timepoints |  | lowest LSM ΔQTcF | -6.83 ms
N#Cc1ccc2c(c1)[C@H]1CCCN(C(=O)c3ccc4[nH]cnc4c3)[C@H]1C2 |  | human | 240 mg, day 15 |  | median ACTH level | 6.8 pmol/L
CN(CCCN1CCN(C(=O)CN2CCN(CC(=O)[O-])CCN(CC(=O)[O-])CCN(CC(=O)[O-])CC2)CC1)c1ccc2nccc(C(=O)NCC(=O)N3CC(F)(F)C[C@H]3C#N)c2c1.[68Ga+3] |  | mice, HT-1080.hFAP and HT-1080 wild-type xenografts, kidney | iv, 500 pmol, 1 h post injection |  | uptake | 2 ± 0.5 %IA/g
CNC(=O)c1ccc(-c2cnc3ncc(Cc4ccc5ncccc5c4)n3n2)cc1F | item: Anemia, all grades | gastric cancer patients | oral, 600 mg twice daily, expansion cohort, any causality |  | patients with adverse event | 0%
C=CC(=O)NC1CCN(c2ncc3ncnc(Nc4ccc(Oc5ccc6c(c5)ncn6C)c(C)c4)c3n2)CC1 |  | human, male | oral, 240 mg, treatment-related adverse event |  | participants with cough | 6.3%
C=CC(=O)Nc1cc(Nc2nccc(-c3cn(C)c4ccccc34)n2)c(OC)cc1N(C)CCN(C)C | storage stability | human dried blood spots | 24 h, on ice, LLOQ level |  | recovery | 61.4%
C=CCN1CC(=O)N2[C@@H](Cc3ccc(O)cc3F)C(=O)N(Cc3cccc(N4CC(N5CCN(CC)CC5)C4)n3)C[C@@H]2N1C(=O)NCc1ccccc1 |  | advanced solid tumour patients | oral, 160 mg twice daily, grade ≥3, dose-escalation |  | treatment-related ALT increased | 0%
O=C(O)CCC(=O)O.[2H]C([2H])([2H])Oc1cc(C)c2[nH]ccc2c1CN1CC[C@@H](C2CC2)C[C@H]1c1ccc(C(=O)O)cc1 | multiple ascending dose | healthy Chinese subjects | 50 mg twice daily |  | subjects with allergic dermatitis TEAE | 0%
CCc1cc(C(=O)NC)c2nccc(N3CCc4c(cc(Cn5ccnc5)cc4-c4cn(C)nc4C(F)(F)F)C3=O)c2c1 |  | Sprague Dawley rats | oral, 100 mg/kg once daily, 7 days |  | blood HDW | 21.8 ± 0.94 g/L
O=C(Nc1nc2cccc(-c3ccc(CN4CCS(=O)(=O)CC4)cc3)n2n1)C1CC1 | item: lipase increased | human rheumatoid arthritis patients | oral, 30 mg once daily, 4 weeks, regardless of relatedness |  | treatment-emergent adverse events | 0%
O=c1[nH]c(=O)n([C@H]2C[C@H](O)[C@@H](CO)O2)cc1CCCC[18F] |  | male CD-1 nu/nu mice, RG2 tumour, liver | intravenous, dose not given, 2 h |  | biodistribution | 0.45 ± 0.11 %ID/g
Cc1ccc([C@@H]2O[C@H](CO)[C@@H](O)[C@H](O)[C@H]2O)cc1Cc1ccc(-c2ccc(F)cc2)s1 |  | Japanese type 2 diabetes patients | 200 mg, day 4, 24 h urine collection | baseline: baseline | urinary sodium excretion change | -0.29 mEq

Structure (SMILES) | assay | test system | setting | scale | endpoint | value
NC1(C(=O)N[C@@H](CCO)c2ccc(Cl)cc2)CCN(c2nc[nH]c3nccc2-3)CC1 |  | metastatic CRPC patients | 480 mg b.i.d., grade 3 to 4, treatment-related, added: enzalutamide 160 mg daily |  | incidence of Dysgeusia | 0%
O=C1CC[C@H](N2Cc3cc(N4CCN(CC5CCN(c6ccc([C@@H]7c8ccc(O)cc8CC[C@@H]7c7ccccc7)cc6)CC5)CC4)ccc3C2=O)C(=O)N1 |  | Sprague-Dawley rat, faeces | oral, 20 mg/kg |  | parent drug share of faecal radioactivity | 60%
C[Si](C)(C)O[Si](C)(C)O[Si](C)(C)C |  |  | 1.9 to 6.0 µg/L, 35.0 °C |  | log KOA | 3.51
O=c1[nH]c(=O)n([C@@H]2O[C@H](CO)[C@@H](O)[C@@H]2F)cc1CCCCC[18F] |  | nude mice, RG2 tumour, brain | intravenous, dose not given, 2 h |  | biodistribution | 0.02 ± 0.01 %ID/g
COc1cc2nccc(Oc3ccc(NC(=O)c4cc5c(n(-c6ccccc6)c4=O)CCCC5=O)nc3)c2cc1OC |  | patients with relapsed/refractory AML | oral, 6 mg once daily |  | drug-related TEAEs leading to discontinuation | 0%
Cc1cccc(CNC(=O)c2cn(CCNC(=O)c3ccccc3Sc3c([N+](=O)[O-])ncn3C)c3cc4c(cc3c2=O)OC(F)(F)O4)n1 |  | Sprague-Dawley rat, male, plasma | intramuscular, 3 mg/kg |  | MRT(0-inf) | 7.59 ± 1.91 h
C[C@H]1O[C@@H](O[C@H]2[C@@H](O)C[C@H](O[C@H]3[C@@H](O)C[C@H](O[C@H]4CC[C@@]5(C)[C@H](CC[C@@H]6[C@@H]5C[C@@H](O)[C@]5(C)[C@@H](C7=CC(=O)OC7)CC[C@]65O)C4)O[C@@H]3C)O[C@@H]2C)C[C@H](O)[C@@H]1O | item: any adverse event | healthy men | oral, dose not given, 8 days, treatment-emergent, crossover trial |  | subjects with adverse event | 4.5%
C=CC(=O)N1CCC[C@@H](n2c(=O)n(-c3ccc(Oc4ccccc4)cc3)c3c(N)nccc32)C1 |  | human | oral, 240 mg | baseline: fed over fasted | Cmax fed/fasted ratio | 1.18
N#Cc1ccccc1[C@@H]1COC[C@]2(CC[C@H](c3ccccc3)CC2)N1 | shake-flask, LC-HRMS | aqueous buffer | 16 h, pH 6.8 |  | solubility | > 750 µM
O=C(N[C@H](Cc1c[nH]c2ccccc12)C(=O)Nc1ccncc1)c1ccc(-c2cc(C(F)(F)F)ccc2F)cc1F |  | Swiss Webster mouse, female, brain | oral, 50 mg/kg, 2 h, 20% HPβCD vehicle |  | concentration | 100 nM
O=C(Nc1cc(C2CCCCC2)[nH]n1)c1ccc(Br)cc1 |  | aqueous buffer | pH 7.4 |  | solubility | < 3.73 µg/mL
CCCCC1=NC2(CCCC2)C(=O)N1Cc1ccc(-c2ccccc2S(=O)(=O)Nc2noc(C)c2C)c(COCC)c1 |  | healthy adult volunteers, plasma | oral, 1600 mg, single dose, fed, crushed tablet |  | Cmax | 30800 ng/mL
Cl.[2H]C([2H])([2H])CC(=O)c1cnc(NC(=O)C2CC2)cc1Nc1cccc(-c2ncn(C([2H])([2H])[2H])n2)c1OC | geometric mean | human | oral, 40 mg twice daily, day 7, fed, liquid, multiple dose |  | Vz/F | 132 L
FC(F)(F)c1ccc([C@@H]2COC[C@H](c3cnc(-c4ccccc4)nc3)N2)cc1 | shake-flask, LC-HRMS | aqueous buffer | 16 h, pH 6.8 |  | solubility | < 4 µM
Cc1coc([C@H]2C[C@H]3[C@@H](CF)SC(N)=N[C@@]3(c3ccc(F)cc3F)CO2)n1 |  | male 129/SVE mouse, CSF | subcutaneous, 80 mg/kg, 5 h |  | CSF concentration | 39 nM
COc1ccc([C@@H](O)c2cc(-c3ncnc4cc(N5CCOCC5)ccc34)c(F)cc2Cl)nn1 |  | locally advanced rectal cancer | oral, 250 mg, added: capecitabine and radiotherapy |  | rectal tenesmus TEAE | 83%
CCCC1CCC(c2ccc(-c3ccc(F)c(F)c3)cc2)CC1 (stereo not drawn) |  | Sprague-Dawley rat, female, placenta | 5000 ng/mL in perfusate, 50 (unit not given), high dose, mixture of 21 LCMs |  | placental accumulation | 352 ± 482 ng/g
Cn1cc([C@H]2COC[C@@H](c3ccc(-c4ccccn4)cc3)N2)cn1 | shake-flask, LC-HRMS | aqueous buffer | 16 h, pH 6.8 |  | solubility | > 750 µM
CNc1cc[n+](CCNC(=O)c2ccn3c(-c4c(C)noc4C)cnc3c2)cc1.[Cl-] |  | aqueous buffer | initial, pH 7 |  | total organic impurities | 0 % peak area
CCOC(=O)N1C[C@@H](C2CCCC2)N[C@@H](c2cc(Cl)cc(Cl)c2)C1 | shake-flask, LC-HRMS | aqueous buffer | 16 h, pH 6.8 |  | solubility | < 4 µM
CCN1CCN(Cc2ccc(NC(=O)c3ccc(C)c(NC(=O)c4cncc(-c5cccs5)c4)c3)cc2C(F)(F)F)CC1 | LC-MS/MS | C57BL/6 mouse, plasma | intraperitoneal, 15 mg/kg single dose, 1 h |  | mean plasma concentration | 582 ng/mL

Excerpt of the above:
Structure (SMILES) | assay | test system | setting | scale | endpoint | value
O=C(Nc1nc2cccc(-c3ccc(CN4CCS(=O)(=O)CC4)cc3)n2n1)C1CC1 | item: lipase increased | human rheumatoid arthritis patients | oral, 30 mg once daily, 4 weeks, regardless of relatedness |  | treatment-emergent adverse events | 0%
O=C(O)CCC(=O)O.[2H]C([2H])([2H])Oc1cc(C)c2[nH]ccc2c1CN1CC[C@@H](C2CC2)C[C@H]1c1ccc(C(=O)O)cc1 | multiple ascending dose | healthy Chinese subjects | 50 mg twice daily |  | subjects with allergic dermatitis TEAE | 0%
O=C1CC[C@H](N2Cc3cc(N4CCN(CC5CCN(c6ccc([C@@H]7c8ccc(O)cc8CC[C@@H]7c7ccccc7)cc6)CC5)CC4)ccc3C2=O)C(=O)N1 |  | Sprague-Dawley rat, faeces | oral, 20 mg/kg |  | parent drug share of faecal radioactivity | 60%
CO[C@H]1C[C@@H]2CC[C@@H](C)[C@@](O)(O2)C(=O)C(=O)N2CCCC[C@H]2C(=O)O[C@H]([C@H](C)C[C@@H]2CC[C@@H](O)[C@H](OC)C2)CC(=O)[C@H](C)/C=C(\C)[C@@H](O)[C@@H](OC)C(=O)[C@H](C)C[C@H](C)/C=C/C=C/C=C/1C |  | healthy adult horses | intravenous, 0.06 mg/kg, 24 h |  | heart rate | 33.5 ± 2.8 beats/min
CNCCOC12CC3(C)CC(C)(CC(Cn4ncc(-c5ccc(N6CCc7cccc(C(=O)Nc8nc9ccccc9s8)c7C6)nc5C(=O)O)c4C)(C3)C1)C2 |  | beagle dog, male, anaesthetised | intravenous bolus, 0.03 mg/kg, 105 min | baseline: baseline | QRS duration change | -2 ms
NC1(C(=O)N[C@@H](CCO)c2ccc(Cl)cc2)CCN(c2nc[nH]c3nccc2-3)CC1 |  | metastatic CRPC patients | 480 mg b.i.d., grade 3 to 4, treatment-related, added: enzalutamide 160 mg daily |  | incidence of Dysgeusia | 0%
